Assay results gathered from unrelated publications.
Each line is one published result; not all experiments were run side by side. “And” joins repeats or separate records; there may be more than shown. Numbers after ± are the reported error. In brackets after ≈: the same amount, converted by molar mass.

With `COc1ccc(Nc2nc(Nc3ccc(OCCOCCOCC[18F])cc3)ncc2Br)cc1` the uptake ratio was 1.09 (ICR mice, S180 tumour; intravenous, 370 kBq, 15 min; reference: tumour over bone).
`CN1CCC[C@]1(C)/C=C/S(=O)(=O)NC(=O)Nc1c2c(cc3c1CCC3O)CCC2` (stereo partly shown) — result for “AUC(0-24) accumulation ratio”: 1.4 (human, plasma; oral, 50 mg twice daily of parent drug, metabolite of dosed drug; reference: day 14 over day 1).
With `C=CS(=O)(=O)Oc1ccc(OC)c(-c2c[nH]c3ncc(-c4cncc(C(=O)N(C)C)c4)cc23)c1` the hydrolytic half-life was greater than 24 h (HPLC; 50 µM, 37 °C, no lysine, followed to 24 h).
`C=Cc1cccc([B-]23OC(=O)C(c4ccccc4)=N[N+]2=Cc2ccc(N(CC)CC)cc2O3)c1` (stereo not shown) — result for “hydrolysis activation energy”: 23.2 kcal/mol (UV/vis decay; aqueous buffer).
The absorbed dose of `C[N+](C)(CCOCCOCCOCCNC(=S)Nc1ccc(C[C@H]2CN(CC(=O)[O-])CCN(CC(=O)[O-])CCN2CC(=O)[O-])cc1)C[c-]1cccc1.[64Cu+2].[Fe+2].c1cc[cH-]c1` is reported as 1.12 µSv/MBq (OLINDA, extrapolated from mouse biodistribution, measured: right colon; adult male human phantom).
`Cc1ccc(CN2C(=O)/C(=N\c3ccc(Cl)cc3Br)c3ccccc32)cc1` has a haemoglobin of 143 ± 4.91 g/L (mouse, blood; 100 mg/kg).
For `O=C(Nc1cnccc1-c1ccc([18F])cc1)c1ccnc(NC(=O)C2CC2)c1`, the SUV was 2.21 (mice, transgenic, GSK-3β, early-stage, small intestine; intravenous, dose not given, 120 min, together with: tariquidar 15 mg/kg i.v. pre-dose).
`Cc1ccc(OCC(=O)N(Cc2cccs2)c2ccn[nH]2)cc1` has a remaining compound of 0.4 (rat plasma; 750 ng/mL, 4 h, 37 °C, unit not given; reference: time zero).
`C=CC(=O)Nc1cc(Nc2nccc(-c3c[nH]c4ccccc34)n2)c(OC)cc1N(C)CCN(C)C` gave a recovery of 92.7% (storage stability; human plasma; 2 h, on ice, MQC level).
`O=C(NCC(F)(F)F)c1cccc(N2Cc3cn(Cc4ccc(F)cc4)nc3C2)c1` has a half-life of 6.1 h (metabolic stability; human, liver microsomes).
For `[123I]c1ccc2nc(-c3ccc(-n4ccnn4)nc3)cn2c1`, the tracer uptake was 0.019 %ID/g (male Wistar rat, muscle; intravenous, 4 MBq, 3 h).
`CN1CCC[C@]1(C)/C=C/S(=O)(=O)NC(=O)Nc1c2c(cc3c1C(O)CC3)CCC2` (stereo partly shown) gave an AUC(0-24) of 140 µg·h/mL (human, plasma; oral, 50 mg twice daily of parent drug, day 1, metabolite of dosed drug).
`Cc1noc(C)c1Cn1cc(N2C(=O)CN(Cc3cccc(O[C@@H]4O[C@H](C(=O)O)[C@@H](O)[C@H](O)[C@H]4O)c3)C2=O)cn1` has a plasma concentration of 7 ng/mL (Sprague-Dawley rat, male; oral, 10 mg/kg of parent drug, 12 h).
`CC(C)(O)c1ncc([S@](N)(=O)=NC(=O)Nc2c3c(cc4c2CCC4)CCC3)s1` — result for “subjects with adverse events”: 50% (measured: general and administration-site disorders; healthy human volunteers; oral, 100 mg single dose, capsule formulation).
The tissue uptake of `O=C([O-])CN1CCN(CC(=O)[O-])CCN(CC(=O)NC[C@H]2CC[C@H](C(=O)N[C@H](Cc3cnc4ccccc4c3)C(=O)NCCCC[C@H](NC(=O)N[C@@H](CCC(=O)O)C(=O)O)C(=O)O)CC2)CCN(CC(=O)[O-])CC1.[64Cu+2]` is reported as 96 %ID/g (ex vivo gamma counting; 22Rv1 tumour-bearing mice, kidney; intravenous, 0.74 MBq, 2 h post-injection).
`CC[C@H](C)[C@H](NC(=O)[C@H](CCC(N)=O)NC(=O)[C@@H](NC(=O)[C@@H]1CCCN1[C@@H]1CN(C(=O)[C@H](CCCCN)NC(=O)[C@H](CC(N)=O)NC(=O)[C@@H](NC(=O)[C@@H](NC(=O)[C@H](CCC(N)=O)NC(=O)[C@@H](N)C(C)C)[C@@H](C)CC)[C@@H](C)CC)CC[C@H]1NS(=O)(=O)c1ccc(C)cc1)C(C)C)C(=O)N[C@H](C(=O)N[C@@H](Cc1ccc(O)cc1)C(=O)N[C@@H](CCCCN)C(N)=O)C(C)C` has a beta-sheet content of 32.4% (CD spectroscopy; 20 mM phosphate buffer; 125 µM, 20 °C).
The AUC(0-inf) of `C=C(NC(=O)c1csc(-c2nc3c(cc2O)-c2nc(cs2)C(=O)NC(C(C)O)C(=O)NC(=C(C)OC)c2nc(cs2)C(=O)NC2c4nc(cs4)C(=O)NC(COC(=O)c4c5c6c(cccc6n4O)COC(=O)C(OC4CC(C)(O)C(N(C)C)C(C)O4)C2OC5)c2nc-3cs2)n1)C(N)=O` (stereo not shown) is reported as 0.191 µg·h/mL (ICR mice, Streptococcus pneumoniae ATCC 49169 infected, immunocompromised, blood; intravenous, 2 mg/kg/day three times daily).
The compound remaining of `COC(=O)[C@@]1(C(C)C)C=C(C(=O)Nc2cccc(C(=O)Nc3ccc(Nc4nccc(-c5cccnc5)n4)c(C)c3)c2)C(=O)CC1` is reported as 101% (rat, plasma; 10 µM, 5 min).
`CN1CCC[C@]1(C)/C=C/S(=O)(=O)NC(=O)Nc1c2c(cc3c1CC(O)C3)CCC2` (stereo partly shown) — result for “AUC(0-24) accumulation ratio”: 1.3 (human, plasma; oral, 100 mg twice daily of parent drug, metabolite of dosed drug; reference: day 14 over day 1).
For `CCOC(=O)C(CC)(CCCSCCCCCCN)NC(=O)c1ccc(C2CC2)c(Cc2ccc(F)cc2)n1` (stereo not shown), the kinetic solubility was 0.3 µg/mL (≈ 0.538 µM) (aqueous buffer with DMSO).
With `Cc1nc(N)nc2c1C(=O)N[C@@H](c1ccc(F)cc1-c1cccc(O[11CH3])n1)C2` the tracer uptake was 46.9 ± 4.6 %ID (radioligand, ex vivo biodistribution; healthy mouse, carcass; 60 min p.i.).
For `C=CC(=O)Nc1cc(Nc2nccc(-c3cn(C)c4ccccc34)n2)c(OC)cc1N(C)CCNC`, the recovery was 94.4% (storage stability; human plasma; 72 h, -80 °C, low QC level).
`N#Cc1cc(NC(=O)C2c3ccccc3C(=O)N(CC(F)(F)F)C2c2ccc[n+]([O-])c2)ccc1F` (stereo not shown) — result for “maximum mean AUC(0-24)”: 158 µg·h/mL (Beagle dog; oral, dose not given, finding, dose range, 4 day).
`CCCCN1C(=O)c2cccc3c(NCCCN4CCOCC4)ccc(c23)C1=O`: “fluorescence quantum yield” 0.1 (DMSO).
`O=C([O-])CN1CCN(CC(=O)[O-])CCN(CC(CCCc2ccccc2[N+](=O)[O-])N(CC(=O)[O-])CC(=O)[O-])CC1.[177Lu+3]` (stereo not shown): “intact radiolabelled complex” 100% (HPLC; human serum; 37 h, pH 7, 37 °C).
`CCN(CC)c1ccc2c(c1)O[B-]1(c3ccccc3C#N)OC(=O)C(c3ccccc3)=N[N+]1=C2` (stereo not shown): “hydrolysis activation energy” 23.2 kcal/mol (UV/vis decay; aqueous buffer).
With `COc1cc(N2CCN(C(=O)C3CCCN3)CC2)ccc1Nc1ncc(Cl)c(Nc2ccccc2P(C)(C)=O)n1` (stereo not shown) the body weight was 23.9 g and 26.6 g and 22.8 g and 22.5 g and 22.1 g (nude mice, NCI-H3122 xenograft; intraperitoneal, 10 mg/kg every other day, day 1).
`C/C(N)=N/C(=N\S(=O)(=O)c1ccc(C(F)(F)F)cc1)N1C[C@H](c2ccccc2)C(c2ccc(Cl)cc2)=N1` has a half-life of 8.4 h (male C57BL/6 mouse, brain; oral, 10 mg/kg).
`O=C(Nc1cnccc1-c1ccc([18F])nc1)c1ccnc(NC(=O)C2CC2)c1` gave an SUV of 18.9 (FVB/NJ mice (both sexes), urine; intravenous, dose not given, 120 min, together with: tariquidar 15 mg/kg i.v. pre-dose).
The tracer uptake of `CC(C(=O)O)n1nc(Cn2cc3cc(OCC[18F])c(Cl)cc3n2)c2ccccc2c1=O` (racemic) is reported as 0.37 %ID/g (rat, lung; 5 min).
For `O=C(O)CCCOc1ccc([18F])cc1-c1cc(-c2ccccc2C(F)(F)F)n(-c2ccccc2)n1`, the peak radioactivity was 12.3 %ID/organ (mouse, liver; dose not given, immediately after administration).
Under “AUC(0-24) accumulation ratio”, `CN1CCC[C@]1(C)/C=C/S(=O)(=O)NC(=O)Nc1c2c(cc3c1CCC3)CC=C2` is recorded as 1.7 (human, plasma; oral, 12.5 mg twice daily of parent drug, metabolite of dosed drug; reference: day 14 over day 1).
Under “cumulative recovery of radioactivity”, `Cc1cc(-c2ccc(C(=O)[C@@H]3CCCC[C@H]3C(=O)Nc3cnn4c3C(=O)NCC4)cc2)[nH]n1` is recorded as 5.9% (human, urine; oral, 200 mg, 0-216 h; reference: dose).
`CCc1cnc(NC(=O)c2cc(S(=O)(=O)N3CCOCC3)ccc2N(C)C2CCCC2)s1` has a haemoglobin of 144 g/L (mouse; 10 mg/kg, 3 doses).
For `CN(O)C(=O)CCC(=O)NCCCN(CCCCN(CCCNC(=O)CCC(=O)N(C)O)C(=O)CCC(=O)N(C)O)C(=O)CCC(=O)N(C)O.[89Zr]`, the intact complex was 99 ± 0.5% (radio-TLC; aqueous buffer; 1 d, pH 7.2, 37 °C, 89Zr-labelled complex, together with: NiCl2 10-fold excess).
Under “maximum undetected urinary excretion”, `CC[C@H](C)[C@@H]1NC(=O)[C@H](Cc2ccc(O)cc2)NC(=O)CCCSC[C@@H](C(=O)N(CC(=O)N[C@@H](CC(C)C)C(=O)NCC(N)=O)Cc2ccc(F)cc2)NC(=O)[C@H](CC(N)=O)NC(=O)[C@H](CCC(N)=O)NC1=O` is recorded as no more than 0.1 µg (human, urine; intravenous, 20 µg).
`COc1ccc2c(c1)CCn1c[n+]3c(c1-2)-c1ccc(OC)cc1CC3` — result for “mean corpuscular haemoglobin”: 15.7 ± 0.85 pg (female NSG mice, blood; 6 mg/kg, day 20, 5 days per week).
